Experimental data of several laboratories.
Lines come from different studies, so protocols differ. ± marks the error that the study gave.
CYP2C19: Cytochrome P450 2C19 (CYP2C19, Homo sapiens, UniProt P33261)
Sequence of UniProt P33261 (whole entry, looked up): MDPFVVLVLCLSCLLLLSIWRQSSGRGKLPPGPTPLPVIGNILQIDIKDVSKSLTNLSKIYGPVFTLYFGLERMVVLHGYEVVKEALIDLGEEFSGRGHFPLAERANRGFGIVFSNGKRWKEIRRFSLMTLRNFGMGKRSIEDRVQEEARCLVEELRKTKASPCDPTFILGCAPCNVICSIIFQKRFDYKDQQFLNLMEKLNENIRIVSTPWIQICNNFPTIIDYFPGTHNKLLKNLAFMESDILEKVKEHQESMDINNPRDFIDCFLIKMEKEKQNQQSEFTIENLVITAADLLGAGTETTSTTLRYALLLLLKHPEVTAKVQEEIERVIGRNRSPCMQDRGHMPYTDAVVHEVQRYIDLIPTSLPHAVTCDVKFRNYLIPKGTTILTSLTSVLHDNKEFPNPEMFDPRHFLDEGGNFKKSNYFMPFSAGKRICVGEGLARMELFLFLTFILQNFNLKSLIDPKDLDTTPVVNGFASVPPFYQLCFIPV
Sequence of UniProt Q06520 (whole entry, looked up): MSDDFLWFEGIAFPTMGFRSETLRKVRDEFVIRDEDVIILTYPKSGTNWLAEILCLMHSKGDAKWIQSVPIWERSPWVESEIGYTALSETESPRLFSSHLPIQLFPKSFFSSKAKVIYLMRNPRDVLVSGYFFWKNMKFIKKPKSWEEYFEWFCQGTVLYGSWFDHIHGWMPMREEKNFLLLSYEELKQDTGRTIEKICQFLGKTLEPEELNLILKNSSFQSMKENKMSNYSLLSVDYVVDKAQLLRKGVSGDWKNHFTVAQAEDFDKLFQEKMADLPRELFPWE
Sequence of UniProt O60656 (whole entry, looked up): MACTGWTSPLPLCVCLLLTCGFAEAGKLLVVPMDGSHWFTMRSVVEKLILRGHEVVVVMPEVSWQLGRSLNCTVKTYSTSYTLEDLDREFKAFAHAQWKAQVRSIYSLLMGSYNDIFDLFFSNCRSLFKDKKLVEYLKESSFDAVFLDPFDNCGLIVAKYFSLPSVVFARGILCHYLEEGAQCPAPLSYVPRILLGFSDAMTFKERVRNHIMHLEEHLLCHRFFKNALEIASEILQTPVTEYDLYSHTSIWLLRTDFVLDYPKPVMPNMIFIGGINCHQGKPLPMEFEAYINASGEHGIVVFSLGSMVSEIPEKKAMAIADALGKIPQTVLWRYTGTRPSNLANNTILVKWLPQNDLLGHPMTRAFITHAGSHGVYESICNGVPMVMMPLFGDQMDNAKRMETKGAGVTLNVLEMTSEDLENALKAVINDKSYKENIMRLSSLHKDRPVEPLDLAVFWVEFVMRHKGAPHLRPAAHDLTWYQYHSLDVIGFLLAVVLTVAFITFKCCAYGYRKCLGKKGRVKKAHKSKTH

CCCCCc1cc(O)c2c(c1)OC(C)(C)C1CCC(C)=CC21 (single isomer, unassigned; (-))
IC50 ratio (UDP-glucuronosyltransferase 1A9 (UGT1A9, Homo sapiens, UniProt O60656); propofol glucuronidation, inhibitor; HEK293 microsomes; together with: propofol; reference: UGT1A9 over UGT2B7): 6 fold

CN(C)C(CNC(=O)Nc1cc(C(F)(F)F)ccc1N1CCOCC1)c1ccncc1 (centres unmarked)
serum anion gap (mouse, serum; intraperitoneal, 240 mg/kg single dose): 20 mmol/L

COc1cc(C(=O)NCCOCCOCCOCCNC(=O)c2ccc([18F])nc2)ccc1NC(=O)C1NC(CC(C)(C)C)C(C#N)(c2ccc(Cl)cc2F)C1c1cccc(Cl)c1F (centres unmarked)
tracer uptake (HepG2 tumour model; host not given, liver; 30 min, tumour-bearing): 10.2 %ID/g

CC(C)[C@H](NC(=O)CNC(=O)[C@H](CCC(N)=O)NC(=O)[C@H](C)N)C(=O)O
drug-related adverse events (human; intravenous infusion, 45 mg/kg/h, 2 h, relatedness Definitely; reference: subjects): 0%

C[C@]12CC[C@H](O)CC1CCC1C2[C@H](O)C(=O)[C@]2(C)[C@@H](c3ccc(=O)oc3)CC[C@]12O (some centres unmarked)
sulfation rate (Sulfotransferase 2A1 (SULT2A1, Homo sapiens, UniProt Q06520); substrate; recombinant human enzyme; 10 µM, 60 min, pH 7.4): 0.263 nmol/min/mg enzyme

COc1ccc2c(=O)c(OC)c(-c3ccc(OC)c(OC)c3)oc2c1
viability (differentiated SH-SY5Y; MTT; 100 µM; reference: control): 38.2 ± 1.9%

COc1ccc(CNc2nc(N3CCC[C@H]3CO)ncc2C(=O)NN)cc1Cl
revertant count (Salmonella typhimurium; TA98; 125 µg/plate, 48 h, together with: rat liver S9): 34 ± 3

Nc1nc2c([C@@H]3O[C@@H]4COP(=O)(O)O[C@H]5[C@@H](O)[C@H](n6cnc7c(=O)[nH]c(N)nc76)O[C@@H]5COP(=O)(O)O[C@H]4[C@H]3O)snc2c(=O)[nH]1
absorption maximum (water): 331 nm

O=C(NC12CC3CC(CC(C3)C1)C2)c1cc2cc(Cl)ccc2[nH]1
intrinsic clearance (human liver microsomes): 0.9 mL/min/g

C[C@@](O)(C(F)F)[C@H](NC(=O)c1ccc(C#CC#CC2CC2)cc1)C(=O)NO
Vd (rat, plasma; intravenous, 40 mg/kg): 2 L/kg

CCC(=O)N(C)c1ccc(Cl)c(Cl)c1
revertants (Salmonella typhimurium; Ames test; TA98; 1.00 mg/plate, without S9 activation): 5 ± 0.6 revertants/plate

Nc1nc2c([C@@H]3O[C@@H]4COP(=O)(O)O[C@H]5[C@@H](O)[C@H](c6scc7c(=O)[nH]c(N)nc67)O[C@@H]5COP(=O)(O)O[C@H]4[C@H]3O)scc2c(=O)[nH]1
molar absorption coefficient (water): 7470 M⁻¹ cm⁻¹

C[C@H](O)CC(=O)OCCc1ccc(O)cc1
CC50 (human cells): > 100 µM

C=C(C)[C@@H]1CCC(C(=O)O)=C[C@H]1c1c(O)cc(CCCCC)cc1O
half-life (CYP2C19; human; 750 mg single dose, alone, fluconazole arm baseline): 24.7 h

CN[C@](C)(C[18F])C(=O)O
tracer uptake (SK-OV-3 tumour model; host not given, kidney; 15 min, tumour-bearing): 25 %ID/g

COc1ccc(CNc2nc(N3CCC[C@H]3CO)ncc2C(=O)NNC(=O)c2cnc(N3CCC[C@H]3CO)nc2NCc2ccc(OC)c(Cl)c2)cc1Cl
revertant count (Salmonella typhimurium; TA98; 125 µg/plate, 48 h, together with: rat liver S9): 28 ± 8

N[C@]1(c2ccccc2Cl)CCC[C@H](O)C1=O
plasma concentration (Wistar rats; intravenous, 20 mg/kg, 60 min): 2830 ± 313 ng/mL

COc1cc2c(=O)cc(-c3ccccc3)oc2c2c1OC(C)(C)C=C2
viability (differentiated SH-SY5Y; MTT; 0.1 µM; reference: control): 101 ± 3.1%

CSCC[C@@H]1NC(=O)[C@@H]2CSSC[C@H](NC(=O)[C@H](CO)NC(=O)[C@H](C)N)C(=O)N[C@@H](CCCNC(=N)N)C(=O)N[C@@H]([C@@H](C)O)C(=O)N3CCC[C@H]3C(=O)N[C@@H](CCCCN)C(=O)N[C@@H](CC(=O)O)C(=O)N[C@H]3CSSC[C@H](NC(=O)[C@H](CCCCN)NC(=O)[C@H](CCCNC(=N)N)NC(=O)[C@H](CC(N)=O)NC1=O)C(=O)N[C@@H](CCCCN)C(=O)N[C@H]1CSSC[C@H](NC(=O)[C@@H]4CCCN4C(=O)[C@H](CC(=O)O)NC(=O)[C@H](C)NC3=O)C(=O)N[C@@H](C)C(=O)N[C@@H](CCCCN)C(=O)N[C@@H](CCC(=O)O)C(=O)N[C@@H]([C@@H](C)O)C(=O)NCC(=O)N[C@@H](CSSC[C@@H](C(N)=O)NC(=O)[C@H](CCCNC(=N)N)NC(=O)[C@H](CC(N)=O)NC1=O)C(=O)N1CCC[C@H]1C(=O)N[C@@H](Cc1ccc(O)cc1)C(=O)NCC(=O)N[C@@H](CCCCN)C(=O)N2
alkaline phosphatase (DA rat, pristane-induced arthritis, serum; subcutaneous, single 0.1 mg/kg at onset, end of 21-day trial): 52 U/L

CN(C)CC1CCCCC1(O)c1cccc(O)c1 (centres unmarked)
efflux ratio (human P-glycoprotein; Caco-2 TC7 monolayer; 50 µM, 3 h, apical pH 7.4, basolateral pH 7.4, together with: cyclosporine A 10 µM; reference: B-to-A over A-to-B): 1.3

O=C(O)CCC(NP(=O)(O)OCCC[C@@H](NC(=O)CCC(NC(=O)CCCCCNC(=O)CCCCCNC(=O)c1ccc([18F])cc1)C(=O)O)C(=O)O)C(=O)O (some centres unmarked)
tracer uptake (CWR22Rv1 tumour model; host not given, liver; intravenous, 1 h, tumour-bearing): 0.49 %ID/g

COc1c(C(=O)/C=C(\O)c2ccccc2)ccc2c1C=CC(C)(C)O2
viability (differentiated SH-SY5Y; MTT; 0.1 µM; reference: control): 102 ± 1.2%

O=C(O)CCC(NP(=O)(O)OCCC[C@@H](NC(=O)CCC(NC(=O)c1ccc([18F])cc1)C(=O)O)C(=O)O)C(=O)O (some centres unmarked)
tracer uptake (CWR22Rv1 tumour model; host not given, spleen; intravenous, 2 h, tumour-bearing): 0.87 %ID/g

CC[C@H](C)C(=O)N1CCC(NC(=O)Nc2ccc(OC(F)(F)F)c(F)c2)CC1
AUC (human, plasma; oral, 8 mg, single dose, healthy volunteers): 1870 ng·h/mL

C=C(C)[C@@H]1CCC(CO)=C[C@H]1c1c(O)cc(CCCCC)cc1O
decrease in Cmax (CYP2C19; concentration not given, single dose, together with: fluconazole steady state): 41%

O=C(O)CCC(NP(=O)(O)OCCC[C@@H](NC(=O)CCC(NC(=O)CCCCCNC(=O)c1ccc([18F])cc1)C(=O)O)C(=O)O)C(=O)O (some centres unmarked)
tracer uptake (CWR22Rv1 tumour model; host not given, lung; intravenous, 1 h, tumour-bearing): 0.43 %ID/g

A few entries again:
O=C(O)CCC(NP(=O)(O)OCCC[C@@H](NC(=O)CCC(NC(=O)CCCCCNC(=O)CCCCCNC(=O)c1ccc([18F])cc1)C(=O)O)C(=O)O)C(=O)O (some centres unmarked)
tracer uptake (CWR22Rv1 tumour model; host not given, liver; intravenous, 1 h, tumour-bearing): 0.49 %ID/g

COc1c(C(=O)/C=C(\O)c2ccccc2)ccc2c1C=CC(C)(C)O2
viability (differentiated SH-SY5Y; MTT; 0.1 µM; reference: control): 102 ± 1.2%

O=C(O)CCC(NP(=O)(O)OCCC[C@@H](NC(=O)CCC(NC(=O)c1ccc([18F])cc1)C(=O)O)C(=O)O)C(=O)O (some centres unmarked)
tracer uptake (CWR22Rv1 tumour model; host not given, spleen; intravenous, 2 h, tumour-bearing): 0.87 %ID/g

CC[C@H](C)C(=O)N1CCC(NC(=O)Nc2ccc(OC(F)(F)F)c(F)c2)CC1
AUC (human, plasma; oral, 8 mg, single dose, healthy volunteers): 1870 ng·h/mL
